Assay results pooled from the literature.
Protocols differ between the studies behind these lines. Several values in a cell are separate wells, animals, samples, runs or records.
Read-out: metabolic stability

Structure (SMILES) = COc1cc(F)cc(-c2nc3ccc(C(=O)NCCCN(C)C)cc3n2C2CCC2)c1; species = mouse; medium = liver microsomes; half-life = 78.5 min
Structure (SMILES) = Cc1nc(N[C@@H](C)c2ccc(-c3nc(C4CC4)no3)cc2)c2cc(C)oc2n1; species = mouse; medium = liver microsomes; half-life = 11 min
Structure (SMILES) = Oc1cc2nc(c1)CNCc1cc(O)cc(n1)CNC2; species = mouse; medium = hepatocytes; half-life = > 240 min
Structure (SMILES) = O=C(CCN1C(=O)CSc2ccccc21)Nc1nnc(-c2ccccn2)[nH]1; species = mouse; medium = liver microsomes; half-life = 50.4 min
Structure (SMILES) = CO[C@@H](C(N)=O)[C@H](NC(=O)c1ccc(NC(=O)c2ccc([N+](=O)[O-])cc2)cc1)C(=O)Nc1ccc(C(=O)Nc2ccc(C(=O)Nc3ccc(C(=O)O)cc3)c(O)c2OC(C)C)cc1; species = mouse; medium = hepatocytes; half-life = 117 min
Structure (SMILES) = COc1cc(-c2nc3ccc(C(=O)NCCCN4CCN(c5ccccc5)C(=O)C4)cc3n2C2CCC2)cc(OC)c1OC; species = mouse; medium = liver microsomes; half-life = 6.1 min
Structure (SMILES) = O=C(Cc1ccccc1)Nc1nc2ccccc2n1Cc1ccccc1; species = mouse; medium = liver microsomes; half-life = 12.9 min and 13 min
Structure (SMILES) = N#Cc1nc(N2CCOCC2)nc(N(Cc2ccc(F)cc2)CC2CCCOC2)n1 (stereo not shown); species = mouse; medium = liver microsomes; half-life = 3.5 min
Structure (SMILES) = Cc1nc(-c2ccc(NC(=O)c3cccs3)cc2Cl)no1; species = mouse; medium = liver microsomes; half-life = 41.4 min
Structure (SMILES) = CCN(c1nc(N[C@H](CC(N)=O)C(=O)NC)nc(N2CCN(c3ccccc3C#N)CC2)n1)C1CCCCC1; species = mouse; medium = liver microsomes; half-life = 114 min
Structure (SMILES) = CN(C)C(=O)c1ccnc(N2Cc3cn(Cc4ccc(F)cc4)nc3C2)n1; species = mouse; medium = liver microsomes; half-life = 105 min
Structure (SMILES) = CCC(CC)CNC(=N)NC(=N)NCCCCCCNC(=N)NC(=N)NCC(CC)CC; species = mouse; medium = hepatocytes; tested at = 1 µM; half-life = 129 min
Structure (SMILES) = COc1cc(-c2nc3ccc(C(=O)NCCCN4CCN(c5ccccn5)CC4)cc3n2C2CCC2)cc(OC)c1OC; species = mouse; medium = liver microsomes; half-life = 3.3 min
Structure (SMILES) = CC(C)CCN(Cc1ccc(F)cc1)c1nc(C#N)nc(N2CCOCC2)n1; species = mouse; medium = liver microsomes; half-life = 7 min
Structure (SMILES) = Cc1[nH]c2ccccc2c1CC(=O)N[C@@H](Cc1ccccc1)C(=O)N(C)c1ccccc1; species = mouse; medium = liver microsomes; tested at = 1 µM; pH = pH 7.4; half-life = < 1 min
Structure (SMILES) = CNC(=O)C1CCN(c2cc(C)c(F)cc2NC(=O)c2ccc(-c3cc(O)ccc3C)c(C)c2)CC1; species = mouse; medium = liver microsomes; tested at = 2 µM; half-life = > 25 min
Structure (SMILES) = O=C(c1cc2ccc(Cl)cc2s1)N(c1ccc(OCCN2CCCC2)cc1)c1ccc(OCCN2CCCC2)cc1; species = female mouse; medium = liver microsomes; half-life = > 40 min
Structure (SMILES) = N#Cc1nc(N2CCOCC2)nc(N(Cc2ccc(F)cc2)CC2CCCNC2)n1 (stereo not shown); species = mouse; medium = liver microsomes; half-life = > 60 min
Structure (SMILES) = CNC(=O)C1CCN(c2cc(C)c(F)cc2NC(=O)c2ccc(-c3c(C)ccc4[nH]ncc34)c(C)c2)CC1; species = mouse; medium = liver microsomes; tested at = 2 µM; half-life = > 25 min

Some of these lines once more:
Structure (SMILES) = Cc1nc(-c2ccc(NC(=O)c3cccs3)cc2Cl)no1; species = mouse; medium = liver microsomes; half-life = 41.4 min
Structure (SMILES) = CCN(c1nc(N[C@H](CC(N)=O)C(=O)NC)nc(N2CCN(c3ccccc3C#N)CC2)n1)C1CCCCC1; species = mouse; medium = liver microsomes; half-life = 114 min
Structure (SMILES) = CN(C)C(=O)c1ccnc(N2Cc3cn(Cc4ccc(F)cc4)nc3C2)n1; species = mouse; medium = liver microsomes; half-life = 105 min
